# Published values gathered from unrelated publications.
# Compare with care: the assays were run in different laboratories. ± gives the spread as reported.
SMILES,target or system,test,test system,setting,scale,quantity,result
CCN(Cc1ccccc1)C(=O)CCc1nc(CN2CCN(C(=O)Cc3ccc(OC)c(OC)c3)CC2)no1,"Potassium voltage-gated channel subfamily KQT member 5 (KCNQ5, Homo sapiens, UniProt Q9NR82)","potassium current, opener, whole-cell patch clamp",transfected cells,"30 nM, -10 mV",,current density,19.8 ± 2.54 pA/pF
CCCCCCCCC(=O)NCc1ccc(O)c(OC)c1,mouse mAb 1-D6,"antibody binding, indirect competitive ELISA",,added: coating antigen 4-OVA,,IC50,0.224 µg/mL
CC(C)[C@H](NC(=O)CNC(=O)[C@H](CCC(N)=O)NC(=O)[C@H](C)N)C(=O)O,,,healthy human,"intravenous, 1 mg/kg single dose",relative to: subjects,subjects with adverse events,16.7%
CC[C@H](C)C(=O)N1CCC(NC(=O)Nc2ccc(OC(F)(F)F)c(F)c2)CC1,,,healthy volunteers,"oral, 24 mg single dose, 14 (unit not given)",,subjects with severe TEAE,0%
COc1cc(C(=O)NCCOCCOCCOCCNC(=O)c2ccc([18F])nc2)ccc1NC(=O)C1NC(CC(C)(C)C)C(C#N)(c2ccc(Cl)cc2F)C1c1cccc(Cl)c1F (centres unmarked),,,"athymic male mice, SJSA-1 xenograft",2 h,relative to: tumour over liver,tumour-to-tissue ratio,0.73 ± 0.21
CN(C)C(CNC(=O)Nc1cc(C(F)(F)F)ccc1N1CCOCC1)c1ccncc1 (centres unmarked),,,"mouse, serum","intraperitoneal, 120 mg/kg single dose",,serum alkaline phosphatase,72 U/L
CCCC[C@H](NC(=O)CNC(=O)CNC(=O)c1ccc(NN)nc1)C(=O)N[C@H]1CC(=O)NCCCC[C@@H](C(N)=O)NC(=O)[C@H](Cc2c[nH]c3ccccc23)NC(=O)[C@H](CCCNC(=N)N)NC(=O)[C@@H](Cc2ccccc2)NC(=O)[C@H](Cc2c[nH]cn2)NC1=O [technetium-99m labelled],,,"C57 mouse, B16/F1 melanoma, brain","2 h, added: L-lysine 12 mg",,uptake,0.03 ± 0.02 %ID/g
COC(=O)C[C@](O)(CCCC(C)(C)OC(C)=O)C(=O)O[C@@H]1C(OC)=C[C@]23CCCN2CCc2cc4c(cc2[C@H]13)OCO4,,,"CD1 mouse, spleen","oral, 1 mg/kg, 2 h",,tissue concentration,443 ng/mL
O=C(O)CCC(NP(=O)(O)OCCC[C@@H](NC(=O)CCC(NC(=O)CCCCCNC(=O)CCCCCNC(=O)c1ccc([18F])cc1)C(=O)O)C(=O)O)C(=O)O (some centres unmarked),PC-3 tumour model,,"host not given, muscle","intravenous, 2 h, tumour-bearing",,tracer uptake,0.03 %ID/g
CN(C)c1ccc(C(=O)NCCCCN2CCN(c3ccccc3O[11CH3])CC2)cc1,,,"male Sprague Dawley rat, brain","intravenous, added: ciclosporin",relative to: ciclosporin over untreated,brain uptake ratio,8.82
CN(C)CC1CCCCC1(O)c1cccc(O)c1 (centres unmarked),P-glycoprotein,,Caco-2 TC7,"1 µM, 3 h, pH 6.8 apical, 7.4 basolateral, added: cyclosporin A 10 µM",,efflux ratio,2.9
CN[C@](C)(C[18F])C(=O)O,,,"SCID mouse U87 xenograft, lung","30 min, post injection",,tissue uptake,2.8 ± 0.9 %ID/g
N=C(N)NCCC[C@@H]1NC(=O)[C@H](CCCCNC(=O)CNC(=O)CNC(=O)CNC(=O)CC[C@H](NC(=O)CCOCCOCCOCCOCCNC(=O)CC[C@H](NC(=O)CN2CCN(CC(=O)O)CCN(CC(=O)O)CCN(CC(=O)O)CC2)C(=O)NCCOCCOCCOCCOCCC(=O)N[C@@H](CCC(=O)NCC(=O)NCC(=O)NCC(=O)NCCCC[C@@H]2NC(=O)[C@@H](Cc3ccccc3)NC(=O)[C@H](CC(=O)O)NC(=O)CNC(=O)[C@H](CCCNC(=N)N)NC2=O)C(=O)NCC(=O)NCC(=O)NCC(=O)NCCCC[C@@H]2NC(=O)[C@@H](Cc3ccccc3)NC(=O)[C@H](CC(=O)O)NC(=O)CNC(=O)[C@H](CCCNC(=N)N)NC2=O)C(=O)NCC(=O)NCC(=O)NCC(=O)NCCCC[C@@H]2NC(=O)[C@@H](Cc3ccccc3)NC(=O)[C@H](CC(=O)O)NC(=O)CNC(=O)[C@H](CCCNC(=N)N)NC2=O)NC(=O)[C@@H](Cc2ccccc2)NC(=O)[C@H](CC(=O)O)NC(=O)CNC1=O [indium-111 labelled],,,"athymic nude mice, female, U-87 MG glioma xenograft, tumour and lungs","intravenous, 1 h",relative to: tumour over lungs,tumour to tissue ratio,4.38 ± 1.28
N#Cc1c(O)c(Cl)c(Cl)c(C#N)c1Cl,,,"healthy human volunteers, plasma","oral, dose not given, geometric mean, added: rosuvastatin",,rosuvastatin Cmax,3.88 ng/mL
CCCCCCCCCCCCC(=O)O.O=C1CCCC2C3CCCN4CCCC(CN12)C34 (centres unmarked),,electrical conductivity,water,"308.15 K, critical micelle concentration",,standard enthalpy of micellization,-0.884 kcal/mol
O=C(O)CCC(NP(=O)(O)OCCC[C@@H](NC(=O)CCC(NC(=O)c1ccc([18F])cc1)C(=O)O)C(=O)O)C(=O)O (some centres unmarked),PC-3 tumour model,,"host not given, muscle","intravenous, 2 h, tumour-bearing",,tracer uptake,0.17 %ID/g
O=C(O)CC[C@H](NC(=O)O[C@@H](CCCCNC(=O)c1ccc([18F])cc1)C(=O)O)C(=O)O,,,"mouse, PC-3 PIP/flu xenografts, bone",30 min,,tissue uptake,2.05 ± 2.39 %ID/g
COc1ccc(C)cc1NC(=O)OC1CC2CCCC(C1)N2Cc1ccc(CC[18F])cc1 (centres unmarked),,,"mouse, blood","30 min, tumour-bearing",,tracer uptake,0.99 %ID/g
[11CH3]n1c(=O)n(CCCO)c(=O)c2c1nc(Oc1cccc(OC(F)(F)F)c1)n2Cc1ccc(Cl)cc1,,ex vivo biodistribution,"Sprague Dawley rat, brain",5 min post injection,,tracer uptake,0.51 ± 0.12 %ID/g
CC1(C)C(=O)N(c2ccc(C#N)c(C(F)(F)F)c2)C(=S)N1c1ccc(C(N)=O)c(F)c1,,,"human, male, plasma","oral, 160 mg, single dose, after high-fat meal",,Tmax (median),240 h
CCc1c2c(nc3ccc(OC4OC(C(=O)O)C(O)C(O)C4O)cc13)-c1cc3c(c(=O)n1C2)COC(=O)C3(O)CC (centres unmarked),,,"human patients, plasma","intravenous, 24 mg/m^2 of parent drug",,Tmax,8 h
CC(CCC(=O)NCC(=O)O)C1CCC2C3C(O)CC4CC(OC5OC(C(=O)O)C(O)C(O)C5O)CCC4(C)C3CCC12C (centres unmarked),,,"human, SLCO1B1 *14/*14, plasma","geometric mean, sex-adjusted",,plasma concentration,6.42 ng/mL
CSCC[C@@H]1NC(=O)[C@@H]2CSSC[C@H](NC(=O)[C@H](CO)NC(=O)[C@H](C)N)C(=O)N[C@@H](CCCNC(=N)N)C(=O)N[C@@H]([C@@H](C)O)C(=O)N3CCC[C@H]3C(=O)N[C@@H](CCCCN)C(=O)N[C@@H](CC(=O)O)C(=O)N[C@H]3CSSC[C@H](NC(=O)[C@H](CCCCN)NC(=O)[C@H](CCCNC(=N)N)NC(=O)[C@H](CC(N)=O)NC1=O)C(=O)N[C@@H](CCCCN)C(=O)N[C@H]1CSSC[C@H](NC(=O)[C@@H]4CCCN4C(=O)[C@H](CC(=O)O)NC(=O)[C@H](C)NC3=O)C(=O)N[C@@H](C)C(=O)N[C@@H](CCCCN)C(=O)N[C@@H](CCC(=O)O)C(=O)N[C@@H]([C@@H](C)O)C(=O)NCC(=O)N[C@@H](CSSC[C@@H](C(N)=O)NC(=O)[C@H](CCCNC(=N)N)NC(=O)[C@H](CC(N)=O)NC1=O)C(=O)N1CCC[C@H]1C(=O)N[C@@H](Cc1ccc(O)cc1)C(=O)NCC(=O)N[C@@H](CCCCN)C(=O)N2,,,"DA rat, pristane-induced arthritis, serum","subcutaneous, 0.1 mg/kg once weekly, end of 21-day trial",,direct bilirubin,0.007 mg/dL

# Repeated from above:
SMILES,target or system,test,test system,setting,scale,quantity,result
CC1(C)C(=O)N(c2ccc(C#N)c(C(F)(F)F)c2)C(=S)N1c1ccc(C(N)=O)c(F)c1,,,"human, male, plasma","oral, 160 mg, single dose, after high-fat meal",,Tmax (median),240 h
CN(C)c1ccc(C(=O)NCCCCN2CCN(c3ccccc3O[11CH3])CC2)cc1,,,"male Sprague Dawley rat, brain","intravenous, added: ciclosporin",relative to: ciclosporin over untreated,brain uptake ratio,8.82
